{"data": "Measured values from different studies", "cell line": "SH-SY5Y", "note": "Lines come from different studies, so protocols differ. ± marks the error that the study gave."}
{"Structure (SMILES)": "COc1ccnc(Nc2c3c(nc4ccccc24)CCCC3)c1", "assay": "MTT", "conditions": "50 µM, 1 h pretreatment, 10% FBS, added: H2O2", "endpoint": "viability", "value": "63.2 ± 2.93%"}
{"Structure (SMILES)": "COc1ccc([C@@H]2N=NC(NCCc3c[nH]c4ccc(C)cc34)=NC2=O)cc1", "assay": "MTT", "conditions": "25 µM, added: L-glutamate 100 µM", "endpoint": "neuroprotection", "value": "26.3 ± 0.077%"}
{"Structure (SMILES)": "Cc1ccc(Nc2c(NC3CCN(Cc4ccccc4)CC3)c(=O)c2=O)cc1", "assay": "neuroprotection, MTT", "conditions": "12.5 µM, 24 h pretreatment, added: H2O2 650 µM for 4 h", "endpoint": "cell survival", "value": "68.2%"}
{"Structure (SMILES)": "Cc1ccnc(Nc2c3c(nc4ccccc24)CCC(C)C3)c1 (stereo not shown)", "assay": "MTT", "conditions": "50 µM, 1 h pretreatment, 10% FBS, added: H2O2", "endpoint": "viability", "value": "58 ± 4.35%"}
{"Structure (SMILES)": "O=c1c(Nc2ccc(Br)cc2)c(NC2CCN(Cc3ccccc3)CC2)c1=O", "assay": "neuroprotection, MTT", "conditions": "12.5 µM, 24 h pretreatment, added: H2O2 650 µM for 4 h", "endpoint": "cell survival", "value": "50.5%"}
{"Structure (SMILES)": "Cc1ccc(Nc2c3c(nc4ccccc24)CCCC3)cc1", "assay": "MTT", "conditions": "50 µM, 1 h pretreatment, 10% FBS, added: H2O2", "endpoint": "viability", "value": "25.8 ± 1.25%"}
{"Structure (SMILES)": "Cc1nc(-c2ccc(Cl)cc2)nc2sc3c(=O)n(CCN4CCOCC4)cnc3c12", "assay": "MTT", "conditions": "25 µM, added: L-glutamate 100 µM", "endpoint": "neuroprotection", "value": "67.8 ± 0.013%"}
{"Structure (SMILES)": "O=c1c(Nc2ccc(O)cc2)c(NC2CCN(Cc3ccccc3)CC2)c1=O", "assay": "neuroprotection, MTT", "conditions": "12.5 µM, 24 h pretreatment, added: H2O2 650 µM for 4 h", "endpoint": "cell survival", "value": "70.2%"}
{"Structure (SMILES)": "Cc1nc2ccc(NCc3cn(CCCCCCOC4=CC(=O)c5ccccc5C4=O)nn3)cc2nc1C", "assay": "cell growth or viability, SRB", "conditions": "48 h", "endpoint": "GI50", "value": "> 100 µM"}
{"Structure (SMILES)": "FC(F)(F)c1cccc(Nc2c3c(nc4ccccc24)CCCC3)c1", "assay": "MTT", "conditions": "50 µM, 1 h pretreatment, 10% FBS, added: H2O2", "endpoint": "viability", "value": "45.2 ± 2.74%"}
{"Structure (SMILES)": "O=C1C=C(OCCCCn2cc(CNc3ccc4nccnc4c3)nn2)C(=O)c2ccccc21", "assay": "cell growth or viability, SRB", "conditions": "48 h", "endpoint": "GI50", "value": "93.2 µM"}
{"Structure (SMILES)": "O=c1c(Nc2ccccc2)c(NC2CCN(Cc3ccccc3)CC2)c1=O", "assay": "neuroprotection, MTT", "conditions": "12.5 µM, 24 h pretreatment, added: H2O2 650 µM for 4 h", "endpoint": "cell survival", "value": "62.6%"}
{"Structure (SMILES)": "O=C1C=C(OCCCCCCn2cc(CNc3ccc4nccnc4c3)nn2)C(=O)c2ccccc21", "assay": "cell growth or viability, SRB", "conditions": "48 h", "endpoint": "GI50", "value": "> 100 µM"}
{"Structure (SMILES)": "O=C(c1ccc(Nc2c3c(nc4ccccc24)CCCC3)cc1)C1CC1", "assay": "MTT", "conditions": "50 µM, 1 h pretreatment, 10% FBS, added: H2O2", "endpoint": "viability", "value": "59.8 ± 2.58%"}
{"Structure (SMILES)": "C=CCn1nnc2c(NCc3ccc(C)s3)nc(N[C@H](CC)CO)nc21", "assay": "MTS", "conditions": "100 µM, 24 h", "endpoint": "cell survival reduction", "value": "~50%"}
{"Structure (SMILES)": "Cc1nc2ccc(NCc3cn(CCCCOC4=CC(=O)c5ccccc5C4=O)nn3)cc2nc1C", "assay": "cell growth or viability, SRB", "conditions": "48 h", "endpoint": "GI50", "value": "42.6 µM"}
{"note": "Excerpt of the above:"}
{"Structure (SMILES)": "Cc1ccnc(Nc2c3c(nc4ccccc24)CCC(C)C3)c1 (stereo not shown)", "assay": "MTT", "conditions": "50 µM, 1 h pretreatment, 10% FBS, added: H2O2", "endpoint": "viability", "value": "58 ± 4.35%"}
{"Structure (SMILES)": "O=c1c(Nc2ccc(Br)cc2)c(NC2CCN(Cc3ccccc3)CC2)c1=O", "assay": "neuroprotection, MTT", "conditions": "12.5 µM, 24 h pretreatment, added: H2O2 650 µM for 4 h", "endpoint": "cell survival", "value": "50.5%"}
